# Results pooled from the literature.
# Several values in a cell are separate wells, animals, samples, runs or records. ± gives the spread as reported.
# T1: AfsR 1-980 (Streptomyces avermitilis); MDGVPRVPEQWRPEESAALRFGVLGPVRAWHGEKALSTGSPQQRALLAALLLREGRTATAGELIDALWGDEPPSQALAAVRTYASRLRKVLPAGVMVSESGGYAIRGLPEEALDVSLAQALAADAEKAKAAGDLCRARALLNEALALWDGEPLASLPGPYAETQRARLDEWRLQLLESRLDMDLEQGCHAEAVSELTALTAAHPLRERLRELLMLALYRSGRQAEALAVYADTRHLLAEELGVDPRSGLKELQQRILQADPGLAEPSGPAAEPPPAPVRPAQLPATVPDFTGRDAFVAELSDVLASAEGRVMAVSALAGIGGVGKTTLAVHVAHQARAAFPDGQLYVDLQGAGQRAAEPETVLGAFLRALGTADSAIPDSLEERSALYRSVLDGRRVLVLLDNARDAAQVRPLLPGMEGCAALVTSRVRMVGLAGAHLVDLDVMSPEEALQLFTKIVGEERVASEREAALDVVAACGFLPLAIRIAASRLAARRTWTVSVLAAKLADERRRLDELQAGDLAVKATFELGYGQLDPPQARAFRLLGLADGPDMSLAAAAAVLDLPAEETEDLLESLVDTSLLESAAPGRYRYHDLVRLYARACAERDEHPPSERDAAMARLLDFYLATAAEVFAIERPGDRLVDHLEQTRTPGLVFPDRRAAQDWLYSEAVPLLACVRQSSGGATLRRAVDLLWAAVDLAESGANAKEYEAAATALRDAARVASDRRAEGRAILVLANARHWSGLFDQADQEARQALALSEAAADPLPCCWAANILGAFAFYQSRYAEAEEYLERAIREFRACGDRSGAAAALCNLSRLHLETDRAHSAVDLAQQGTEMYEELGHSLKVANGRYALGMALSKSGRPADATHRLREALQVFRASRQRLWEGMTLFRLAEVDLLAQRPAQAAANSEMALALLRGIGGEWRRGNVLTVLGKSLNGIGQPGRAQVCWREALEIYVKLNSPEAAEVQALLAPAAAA
# Chain of UniProt O43614 (whole entry, unmodified, looked up): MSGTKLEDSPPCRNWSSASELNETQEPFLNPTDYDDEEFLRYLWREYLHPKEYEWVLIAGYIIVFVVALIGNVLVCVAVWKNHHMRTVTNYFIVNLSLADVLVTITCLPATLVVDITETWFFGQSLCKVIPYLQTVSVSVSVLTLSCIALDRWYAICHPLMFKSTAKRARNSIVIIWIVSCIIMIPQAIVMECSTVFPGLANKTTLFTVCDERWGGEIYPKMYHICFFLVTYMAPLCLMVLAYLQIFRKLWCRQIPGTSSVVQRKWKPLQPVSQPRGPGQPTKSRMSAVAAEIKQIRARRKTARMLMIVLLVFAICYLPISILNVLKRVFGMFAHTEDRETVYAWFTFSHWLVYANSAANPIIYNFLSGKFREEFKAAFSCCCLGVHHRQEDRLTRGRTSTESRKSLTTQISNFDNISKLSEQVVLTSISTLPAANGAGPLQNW
# Chain of UniProt O75469 (whole entry, looked up): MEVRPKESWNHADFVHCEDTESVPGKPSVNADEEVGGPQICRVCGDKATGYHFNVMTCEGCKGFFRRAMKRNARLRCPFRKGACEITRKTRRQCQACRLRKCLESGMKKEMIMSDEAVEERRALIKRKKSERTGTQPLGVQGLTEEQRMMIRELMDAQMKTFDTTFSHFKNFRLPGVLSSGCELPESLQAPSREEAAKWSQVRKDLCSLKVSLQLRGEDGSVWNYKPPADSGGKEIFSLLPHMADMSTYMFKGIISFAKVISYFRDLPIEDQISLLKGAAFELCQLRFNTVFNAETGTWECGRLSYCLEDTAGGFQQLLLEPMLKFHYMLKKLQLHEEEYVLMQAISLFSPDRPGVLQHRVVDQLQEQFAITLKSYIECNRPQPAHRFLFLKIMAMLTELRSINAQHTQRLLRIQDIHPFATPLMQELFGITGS
Molecule,target or system,assay,test system,setting,scale,endpoint,value
dynorphin,"Orexin receptor type 2 (HCRTR2, Homo sapiens, UniProt O43614, del254-292/I293E/K294R/L160H/M161K/Q254E)","sensor fluorescence, fluorescence imaging",HEK293T,"concentration not given, unit not given",baseline: baseline,ΔF/F0,-0.838 and -0.639 and 0.397 and -0.603 and 0.573 and 1.71 and -0.106 and 0.691
GGGCGGGGGAGACAUAUAUCACAGCCUGUCUCGUGCCCGACCCCGCCC (RNA (Hepatitis C virus); hairpin; bulge; 12 nt apical loop),"HNRNPA1 89-179, linker-RRM2 (Homo sapiens)",ITC,folded RNA,,,Kd,2.48 ± 0.48 µM
calpain inhibitor III,Huh-7-ACE2,cell viability,,,,CC50,> 2.5 µM
insulin human,,refers to: GOT1 mRNA,"uninfected mouse, brain","i.p., dose not given",baseline: PBS,fold change,1.58
aspterric acid,,root length,Arabidopsis thaliana Col-0 seeds,"3.13 µg/mL, 7 days, dark",,inhibition,8.8%
Polymyxin B,,,"mouse, urine",20 mg/kg,,NGAL level,37 ng/mL
DPDPE,,RP-HPLC,HALO Peptide ES-C18 column,"25 µM, acetic acid/methanol, 10 min gradient",,retention time,7.95 min
TGCCGTCGCCGAACTGATCGGGAGCGAGTGCGGCGACGGGCTTCGGCCCGCGCCGCTCTCATGAGTCCGCGTCAGTTTCGCGCCCCGGCAAGGGCGACACGAACGGGTGAAGCGGGAGGCACACGTGTCCCCTGCCGTCTCCACCGGTAACCTCACACTCATGGC (dsDNA),"T1, AfsR 1-980 (Streptomyces avermitilis)",EMSA,"double-stranded DNA, one strand shown",,,binding,no binding
heparin sodium,,,healthy Chinese adult volunteers,"continuous intravenous infusion, 8 IU/kg/h, 5 days",,subjects with AEs leading to death,0%
"Ac-LRKLRKRLLRDWLKAFYDKVAEKLKEAF-NH2 (N-acetyl, C-amide)",THP-1 derived macrophages,,peptide,"2 h pulse, 360 min chase, heparin wash",,cell-associated peptide,61 ± 1.2%
TYGPVFMCL,HLA-A24 complex with compound,nanoDSF,peptide,"pH 7.6, 2 µM complex",,Tm,64.9 ± 0.1 °C
abamectin,"Nuclear receptor subfamily 1 group I member 2 (NR1I2, Homo sapiens, UniProt O75469)",,,concentration not given,,activity,inactive
QAKTFLDKFNHEAEDLFYQ,,circular dichroism,"peptide, water/TFE 1:1 v/v","200 µM, 25 °C",,alpha-helix content,63.3%
Met-enkephalin,,LC-MS3,rat dialysate with 5% acetic acid,-80 °C,,storage stability time,~5 days
capreomycin sulfate,,,"guinea pig, serum","insufflation, dose not given, dry powder combination single dose",,AUC(0-inf),5080 ng·h/mL

# Excerpt of the above:
Molecule,target or system,assay,test system,setting,scale,endpoint,value
DPDPE,,RP-HPLC,HALO Peptide ES-C18 column,"25 µM, acetic acid/methanol, 10 min gradient",,retention time,7.95 min
TGCCGTCGCCGAACTGATCGGGAGCGAGTGCGGCGACGGGCTTCGGCCCGCGCCGCTCTCATGAGTCCGCGTCAGTTTCGCGCCCCGGCAAGGGCGACACGAACGGGTGAAGCGGGAGGCACACGTGTCCCCTGCCGTCTCCACCGGTAACCTCACACTCATGGC (dsDNA),"T1, AfsR 1-980 (Streptomyces avermitilis)",EMSA,"double-stranded DNA, one strand shown",,,binding,no binding
